Experimental data gathered from unrelated publications.
Lines come from different studies, so protocols differ. Numbers after ± are the reported error.
CSNK1D: Casein kinase I isoform delta (CSNK1D, Homo sapiens, UniProt P48730)
UniProt P48730, sequence (whole entry, looked up): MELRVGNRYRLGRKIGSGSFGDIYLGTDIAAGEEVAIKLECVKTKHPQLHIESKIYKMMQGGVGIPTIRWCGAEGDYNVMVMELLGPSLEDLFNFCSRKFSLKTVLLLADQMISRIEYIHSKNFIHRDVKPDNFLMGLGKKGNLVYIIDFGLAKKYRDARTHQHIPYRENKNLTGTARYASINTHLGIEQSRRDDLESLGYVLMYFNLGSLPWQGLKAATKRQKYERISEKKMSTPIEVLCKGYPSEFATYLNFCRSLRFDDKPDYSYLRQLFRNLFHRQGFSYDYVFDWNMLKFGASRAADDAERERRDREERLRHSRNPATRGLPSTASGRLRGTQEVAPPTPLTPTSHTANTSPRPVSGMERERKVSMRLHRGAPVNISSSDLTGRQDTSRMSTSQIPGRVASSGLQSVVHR
Dihydrofolate reductase type 2: Dihydrofolate reductase type 2 (Escherichia coli, UniProt P00383)
UniProt P00383, sequence (whole entry, looked up): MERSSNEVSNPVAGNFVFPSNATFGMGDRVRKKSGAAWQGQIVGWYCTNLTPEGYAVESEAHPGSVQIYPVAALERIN
CYP2E1: Cytochrome P450 2E1 (CYP2E1, Homo sapiens, UniProt P05181)
UniProt P05181, sequence (whole entry, looked up): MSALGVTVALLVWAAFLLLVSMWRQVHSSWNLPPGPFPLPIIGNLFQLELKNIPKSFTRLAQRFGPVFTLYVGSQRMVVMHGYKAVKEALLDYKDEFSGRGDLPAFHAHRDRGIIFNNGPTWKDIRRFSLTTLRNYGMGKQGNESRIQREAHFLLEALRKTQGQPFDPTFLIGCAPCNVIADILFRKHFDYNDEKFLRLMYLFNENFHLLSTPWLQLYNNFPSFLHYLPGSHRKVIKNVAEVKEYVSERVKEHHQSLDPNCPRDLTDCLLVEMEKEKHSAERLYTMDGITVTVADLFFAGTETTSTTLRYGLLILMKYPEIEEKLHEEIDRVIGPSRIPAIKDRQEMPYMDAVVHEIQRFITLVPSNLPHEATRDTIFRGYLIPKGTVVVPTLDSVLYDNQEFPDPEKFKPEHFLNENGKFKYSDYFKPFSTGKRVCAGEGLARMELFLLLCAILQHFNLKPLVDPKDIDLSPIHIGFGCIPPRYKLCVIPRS
PSMB5: Proteasome Macropain subunit MB1 (PSMB5, Homo sapiens, UniProt P28074)
UniProt P37231, sequence (whole entry, looked up): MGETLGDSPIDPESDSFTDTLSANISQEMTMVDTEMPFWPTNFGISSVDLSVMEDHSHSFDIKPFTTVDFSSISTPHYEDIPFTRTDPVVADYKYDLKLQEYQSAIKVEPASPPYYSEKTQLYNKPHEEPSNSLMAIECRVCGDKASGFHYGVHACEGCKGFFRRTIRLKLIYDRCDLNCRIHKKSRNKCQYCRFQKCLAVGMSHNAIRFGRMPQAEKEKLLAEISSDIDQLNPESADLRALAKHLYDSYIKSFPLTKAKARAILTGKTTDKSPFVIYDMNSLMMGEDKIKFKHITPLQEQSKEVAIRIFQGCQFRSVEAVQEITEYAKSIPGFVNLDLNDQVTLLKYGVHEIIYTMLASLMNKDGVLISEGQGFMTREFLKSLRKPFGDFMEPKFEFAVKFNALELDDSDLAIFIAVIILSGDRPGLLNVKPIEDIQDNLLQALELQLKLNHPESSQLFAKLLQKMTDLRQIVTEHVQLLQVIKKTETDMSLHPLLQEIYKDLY
UniProt P28074, sequence (whole entry, looked up): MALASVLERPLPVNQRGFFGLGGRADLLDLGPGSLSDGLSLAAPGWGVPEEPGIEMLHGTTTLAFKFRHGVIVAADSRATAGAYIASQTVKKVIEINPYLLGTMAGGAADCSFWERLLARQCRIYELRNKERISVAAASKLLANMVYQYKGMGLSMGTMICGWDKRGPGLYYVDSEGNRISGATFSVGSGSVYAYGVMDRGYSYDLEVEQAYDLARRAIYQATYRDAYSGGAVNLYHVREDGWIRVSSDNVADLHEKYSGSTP
UniProt P07949, sequence (whole entry, looked up): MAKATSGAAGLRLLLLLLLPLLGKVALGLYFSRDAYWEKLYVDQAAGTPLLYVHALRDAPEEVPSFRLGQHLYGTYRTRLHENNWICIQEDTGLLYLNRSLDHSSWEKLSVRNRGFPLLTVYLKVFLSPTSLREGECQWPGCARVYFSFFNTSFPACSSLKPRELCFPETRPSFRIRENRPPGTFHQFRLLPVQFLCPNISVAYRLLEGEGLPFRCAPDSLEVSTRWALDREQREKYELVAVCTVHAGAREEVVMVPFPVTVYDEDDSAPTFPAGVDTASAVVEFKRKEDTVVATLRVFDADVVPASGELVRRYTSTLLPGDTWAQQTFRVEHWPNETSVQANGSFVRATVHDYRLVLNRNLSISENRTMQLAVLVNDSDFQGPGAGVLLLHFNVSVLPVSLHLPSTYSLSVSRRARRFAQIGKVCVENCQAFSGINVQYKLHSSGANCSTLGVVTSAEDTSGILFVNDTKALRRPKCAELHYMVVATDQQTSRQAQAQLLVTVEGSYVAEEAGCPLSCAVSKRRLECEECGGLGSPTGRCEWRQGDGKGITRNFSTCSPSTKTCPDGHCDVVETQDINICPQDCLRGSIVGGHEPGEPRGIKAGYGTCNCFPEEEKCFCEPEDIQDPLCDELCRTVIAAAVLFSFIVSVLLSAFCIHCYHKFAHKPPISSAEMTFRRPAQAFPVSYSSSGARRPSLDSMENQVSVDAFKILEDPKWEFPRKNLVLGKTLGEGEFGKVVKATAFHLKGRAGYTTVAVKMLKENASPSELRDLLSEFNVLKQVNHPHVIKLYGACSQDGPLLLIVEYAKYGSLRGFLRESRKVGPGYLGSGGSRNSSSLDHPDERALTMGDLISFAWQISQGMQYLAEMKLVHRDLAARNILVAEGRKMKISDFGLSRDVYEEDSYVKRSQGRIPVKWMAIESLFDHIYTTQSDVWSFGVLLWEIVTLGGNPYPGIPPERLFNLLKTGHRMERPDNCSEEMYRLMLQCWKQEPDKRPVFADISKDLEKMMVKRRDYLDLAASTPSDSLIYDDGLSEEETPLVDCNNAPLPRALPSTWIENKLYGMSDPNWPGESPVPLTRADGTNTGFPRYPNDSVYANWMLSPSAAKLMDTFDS
UniProt P42568, sequence (whole entry, looked up): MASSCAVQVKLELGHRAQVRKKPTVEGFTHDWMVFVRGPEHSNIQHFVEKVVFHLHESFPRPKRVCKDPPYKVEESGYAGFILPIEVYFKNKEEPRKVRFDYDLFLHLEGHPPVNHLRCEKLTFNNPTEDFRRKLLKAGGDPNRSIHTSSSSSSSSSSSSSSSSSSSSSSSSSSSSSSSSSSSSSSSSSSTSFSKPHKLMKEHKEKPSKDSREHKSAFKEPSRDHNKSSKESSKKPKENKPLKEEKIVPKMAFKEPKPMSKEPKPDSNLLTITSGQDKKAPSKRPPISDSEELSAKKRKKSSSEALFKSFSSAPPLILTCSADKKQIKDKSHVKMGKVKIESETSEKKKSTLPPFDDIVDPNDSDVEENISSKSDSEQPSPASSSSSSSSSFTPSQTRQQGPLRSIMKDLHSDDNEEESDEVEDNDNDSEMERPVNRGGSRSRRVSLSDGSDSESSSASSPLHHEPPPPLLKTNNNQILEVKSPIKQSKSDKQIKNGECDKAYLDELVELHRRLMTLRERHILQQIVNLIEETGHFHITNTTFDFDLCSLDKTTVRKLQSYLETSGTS
UniProt P28076, sequence (whole entry, looked up): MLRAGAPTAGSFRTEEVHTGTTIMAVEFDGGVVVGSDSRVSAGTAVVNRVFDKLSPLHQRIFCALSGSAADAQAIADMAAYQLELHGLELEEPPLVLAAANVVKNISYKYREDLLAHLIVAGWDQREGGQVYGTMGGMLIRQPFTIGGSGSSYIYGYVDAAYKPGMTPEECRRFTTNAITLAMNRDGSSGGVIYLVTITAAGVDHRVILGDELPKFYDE
UniProt P14555, sequence (whole entry, looked up): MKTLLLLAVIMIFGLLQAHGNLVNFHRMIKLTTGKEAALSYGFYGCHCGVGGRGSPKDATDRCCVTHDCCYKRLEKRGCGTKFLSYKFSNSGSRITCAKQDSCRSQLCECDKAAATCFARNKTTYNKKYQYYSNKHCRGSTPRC
UniProt Q9UBF8, sequence (whole entry, looked up): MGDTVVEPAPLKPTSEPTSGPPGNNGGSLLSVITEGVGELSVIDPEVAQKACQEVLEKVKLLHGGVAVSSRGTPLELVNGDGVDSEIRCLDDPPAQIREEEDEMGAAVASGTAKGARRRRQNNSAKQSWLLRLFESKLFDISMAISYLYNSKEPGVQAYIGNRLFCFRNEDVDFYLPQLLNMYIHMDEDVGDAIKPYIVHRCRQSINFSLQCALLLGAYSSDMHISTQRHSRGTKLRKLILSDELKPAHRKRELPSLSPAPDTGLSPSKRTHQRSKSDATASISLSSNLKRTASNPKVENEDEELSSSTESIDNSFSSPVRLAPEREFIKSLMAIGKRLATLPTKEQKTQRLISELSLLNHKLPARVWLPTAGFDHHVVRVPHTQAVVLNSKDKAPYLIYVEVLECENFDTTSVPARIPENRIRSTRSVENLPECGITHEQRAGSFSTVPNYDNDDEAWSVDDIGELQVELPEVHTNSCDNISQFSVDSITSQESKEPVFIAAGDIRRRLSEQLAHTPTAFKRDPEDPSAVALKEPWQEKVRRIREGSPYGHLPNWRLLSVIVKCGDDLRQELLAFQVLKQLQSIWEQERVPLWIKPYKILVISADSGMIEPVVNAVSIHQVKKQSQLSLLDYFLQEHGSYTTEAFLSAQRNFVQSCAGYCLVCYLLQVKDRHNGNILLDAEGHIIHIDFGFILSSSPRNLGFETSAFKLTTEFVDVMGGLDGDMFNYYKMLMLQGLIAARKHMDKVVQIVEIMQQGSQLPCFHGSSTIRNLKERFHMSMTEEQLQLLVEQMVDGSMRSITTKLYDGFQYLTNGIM

N=C(N)c1ccc(CNC(=O)c2cnn(Cc3ccccc3)c2)cc1
IC50 (Prothrombin (F2, Homo sapiens, UniProt P00734)): 30 µM

CC(C)C[C@H](NC(=O)[C@H](CCc1ccccc1)NC(=O)CN1CCOCC1)C(=O)N[C@@H](Cc1ccccc1)C(=O)N[C@@H](CC(C)C)C(=O)[C@@]1(C)CO1
IC50 (Proteasome subunit beta type-9 (Mus musculus, UniProt P28076); proteasome subunit activity; Ba/F3 BCR-ABL1 H396P; 1 h pulse): 0.198 ± 0.0184 µM

COc1cc(O)c(-c2nc(-c3ccc(F)cc3)c(-c3ccncc3)[nH]2)c(OC)c1
IC50 (CSNK1D; inhibitor): 5.34 ± 0.497 µM

COc1ccc(-c2nc3ccc(C(=O)N4CCOCC4)cc3[nH]2)cc1Br
IC50 (Dihydrofolate reductase type 2; enzyme activity; pH 7): > 630 µM

Cc1cccc(-c2nc(-c3ccc(N)cc3)[nH]c2-c2ccncc2)c1
IC50 (CSNK1D; inhibitor): 3.35 ± 0.349 µM

CCc1oc2ccccc2c1C(=O)c1ccc(O)cc1
IC50 (CYP2E1; p-nitrophenol hydroxylation, inhibitor; baculosomes; 10 min, with additive 100 µM): 74 µM

COc1cc(/C=N/n2c(C)nc3ccc(C)cc3c2=O)ccc1OCc1ccccc1
IC50 (Phospholipase A2, membrane associated (Homo sapiens, UniProt P14555); enzyme activity, inhibitor, colorimetric): 93.7 ± 4.28 µM

C=Cc1ccccc1
IC50 (CYP2E1; enzyme activity, inhibitor; 30 (unit not given), pH 7.4): 74 µM

O=C(Nc1ccccc1)c1cc([N+](=O)[O-])ccc1Cl
IC50 (Peroxisome proliferator-activated receptor gamma, ligand-binding domain (PPARG, Homo sapiens, UniProt P37231); binding, scintillation proximity; His-tagged ligand-binding domain; added: [3H]rosiglitazone): 0.145 µM

c1cc(-c2cc3ncc(OCC4CCNCC4)nc3cc2-c2cccc(N3CCCCC3)c2)cc(N2CCCCC2)c1
IC50 (Protein AF-9, with DOT1L (Homo sapiens, UniProt P42568); DOT1L binding, AlphaLISA): 1.9 ± 0.15 µM

CCN(CCO)C(=O)c1ccc2nc(-c3ccc(OCCCOc4ccc(-c5nc6ccc(C(=O)N(CC)CCO)cc6[nH]5)cc4Br)c(Br)c3)[nH]c2c1
IC50 (Dihydrofolate reductase type 2; enzyme activity; pH 7): > 100 µM

Cc1ccc(-c2csc(NN=Cc3ccc(N4CC(C)CC(C)C4)cc3)n2)cc1 (stereo not drawn)
IC50 (alpha-glucosidase; enzyme activity, inhibitor; added: p-nitrophenyl-alpha-D-glucopyranoside): 49.5 µM

COC1CCC(C[C@H](NC(=O)[C@H](CC(C)C)NC(=O)c2cnc(C)s2)C(=O)N[C@H](/C=C/S(C)(=O)=O)Cc2ccc(CN)cc2)CC1 (stereo partly drawn)
IC50 (PSMB5; competitive ABPP; Raji cell lysate): > 10 µM

CC[C@@H]1[C@H](F)C(=O)N[C@@H]1COc1nccc2cc(C(N)=O)c(OC)cc12
IC50 (Phosphatidylinositol 4-kinase beta (PI4KB, Homo sapiens, UniProt Q9UBF8); ATP probe binding, KiNativ profiling, measured: ATP probe site; THP-1 cell lysate): > 5 µM

COCC(=O)N1CCC[C@H](C(=O)NCc2nc(-c3ccccc3)cs2)C1
IC50 (uncharacterized protein (Plasmodium falciparum, UniProt A0A5K1K7U1+Q8I261+Q8IJT1); Suc-LLVY-AMC): 0.13 ± 0.026 µM

C=CC(=O)N1CCC[C@@H](n2nc(-c3ccc(Oc4ccccc4)cc3)c3c(N)ncnc32)C1
IC50 (Serine/threonine-protein kinase mTOR (MTOR, Homo sapiens, UniProt P42345)): 1.86 µM

CC(C)C[C@H](NC(=O)c1cc(Cl)ccc1Cl)C(=O)N[C@@H](CC(C)C)C(=O)N[C@H](/C=C/S(C)(=O)=O)Cc1ccc(CN)cc1
IC50 (PSMB5; competitive ABPP; Raji cell lysate): 5.51 µM

COc1cc(NC(=O)Nc2ccc(C)c(F)c2)cc2sc(NC(=O)c3ccccc3)nc12
IC50 (Proto-oncogene tyrosine-protein kinase receptor Ret (RET, Homo sapiens, UniProt P07949); kinase activity, inhibitor; replicate two, added: 1 µM ATP, poly(Glu,Tyr)): 9.12 µM

A few entries again:
c1cc(-c2cc3ncc(OCC4CCNCC4)nc3cc2-c2cccc(N3CCCCC3)c2)cc(N2CCCCC2)c1
IC50 (Protein AF-9, with DOT1L (Homo sapiens, UniProt P42568); DOT1L binding, AlphaLISA): 1.9 ± 0.15 µM
